Measured values gathered from unrelated publications.
A part holds a random share of what one study measured.

Block 1
Target: Prothrombin, mature alpha-thrombin (F2, Homo sapiens, UniProt P00734)
Technique: aptamer microarray, sandwich
Form: DNA with 2'F-ANA
Medium: in vitro
Concentration: 200 nM
Setting: whole 15-mer aptamer, many near background
With: Cy3 exosite-II aptamer, 400 nM
Reading: higher = stronger binding
Sequence	mean fluorescence intensity
GGTTGGTGTGGTTGG (2'F-ANA at 1 2 3 4 5 7 12 13)	76.1 a.u.
GGTTGGTGTGGTTGG (2'F-ANA at 1 3 4 5 7 12 13 14 15)	70.1 a.u.
GGTTGGTGTGGTTGG (2'F-ANA at 3 4 7 9 11 12 14 15)	342 a.u.

Block 2
Target: RNA binding protein fox-1 homolog 2, RRM domain, GST-SBP tag (RBFOX2, Homo sapiens, UniProt O43251-10, residues 100-194)
Technique: RNA Bind-n-Seq
Form: RNA
Medium: in vitro
Concentration: 365 nM
Setting: natural RNA segment, single round, ends assumed
Reference: no-protein control
Reading: higher = stronger binding
Residues (chain): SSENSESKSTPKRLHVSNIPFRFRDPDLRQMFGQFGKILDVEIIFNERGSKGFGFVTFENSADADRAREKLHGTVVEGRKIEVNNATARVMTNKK
Sequence	RBNS enrichment (R)
GGGAGUUCUACAGUCCGACGAUCUCCCCAGAUGCUGCCAGGCAGCCCCUCCCCAAGCCUCAAAGAAGCAUUUGCUGAGGAUGGAGAGGCAGGGGAGGGAGGCGGGAGGCCGUCACUGGAGUGGCGUCUGCAGCUGGAAUUCUCGGGUGCCAA	0.655
GGGAGUUCUACAGUCCGACGAUCAUCUGUGAUGCUCUGUCCCAAGCCAUGGGGAUCUAGAGGUGAAUCAGAAAUAGCCUCAGAAACUGAGGGUUUCAUAGUUGGAAGGAAGAAAUGGUCAUAAACACAAAUCAUGGAAUUCUCGGGUGCCAA	0.245
GGGAGUUCUACAGUCCGACGAUCCAAGGGAACCAGAGUUUGGUUCUUUAUGCAAAUUUUUUCCCAAUGAAAUAAAACAUAGUUAACUGUGUUUGAUGUGAAAUAAUAGAUUGUGGGUAGAGGUGAGGCCAAAAUGGAAUUCUCGGGUGCCAA	0.497

Block 3
Target: Histone acetyltransferase KAT6A, winged helix 1, GST fusion (KAT6A, Homo sapiens, UniProt Q92794, residues 1-85)
Technique: protein binding microarray
Form: double-stranded DNA, one strand shown
Medium: in vitro
Concentration: not given
Setting: 8-mer, flanks averaged, mean of 2 arrays, mostly near background
Reference: not given
Reading: higher = stronger binding
Residues (chain): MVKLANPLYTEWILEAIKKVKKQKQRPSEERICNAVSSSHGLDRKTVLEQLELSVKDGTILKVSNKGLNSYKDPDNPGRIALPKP
Sequence	E-score
TACCCGCA	0.291
CCGGATGA	-0.0719
TACTCGGA	-0.0316
AATGTGTG	-0.109

Mixed results
Molecule	target	assay	system	setting	how to read	endpoint	value
PhoQ, residues 284 288 289 292 302 303 ALVSVA	PhoP, residues 12 14 15 18 19 TTLRV (Escherichia coli, UniProt P23836)	Sort-seq, measured: YFP reporter	E. coli	PhoQ-PhoP variant library, with: 10 µM Mg2+	reference: high Mg2+ state, higher = stronger signaling	fold induction	4.35

For quick reference, copied from above (block 1):
Sequence	mean fluorescence intensity
GGTTGGTGTGGTTGG (2'F-ANA at 1 2 3 4 5 7 12 13)	76.1 a.u.
GGTTGGTGTGGTTGG (2'F-ANA at 1 3 4 5 7 12 13 14 15)	70.1 a.u.
